Results collected from several papers.
Lines come from different studies, so protocols differ. ± marks the error that the study gave.
Nuclear receptor subfamily 2 group C member 2 ligand-binding domain: Nuclear receptor subfamily 2 group C member 2, ligand-binding domain (Homo sapiens, UniProt P49116)
UniProt P49116, sequence (whole entry, looked up): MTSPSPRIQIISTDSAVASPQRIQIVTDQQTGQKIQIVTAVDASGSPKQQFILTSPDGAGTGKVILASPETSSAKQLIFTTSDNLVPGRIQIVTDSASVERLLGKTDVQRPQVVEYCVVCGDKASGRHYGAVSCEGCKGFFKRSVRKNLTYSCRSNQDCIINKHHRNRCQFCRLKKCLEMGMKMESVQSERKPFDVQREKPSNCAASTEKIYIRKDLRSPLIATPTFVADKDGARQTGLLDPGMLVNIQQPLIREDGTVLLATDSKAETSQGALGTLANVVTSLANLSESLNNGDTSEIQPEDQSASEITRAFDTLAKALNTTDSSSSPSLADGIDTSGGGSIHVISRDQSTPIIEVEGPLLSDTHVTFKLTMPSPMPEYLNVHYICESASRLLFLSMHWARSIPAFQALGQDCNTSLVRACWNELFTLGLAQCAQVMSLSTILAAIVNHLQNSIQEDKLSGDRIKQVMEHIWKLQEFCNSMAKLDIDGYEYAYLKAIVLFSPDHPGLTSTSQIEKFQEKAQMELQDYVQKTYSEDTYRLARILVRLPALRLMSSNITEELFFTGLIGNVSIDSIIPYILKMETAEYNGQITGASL
YWHAG/RELA phospho-Ser45 p65 peptide: YWHAG/RELA, phospho-Ser45 p65 peptide (Homo sapiens, UniProt P61981+Q04206)
UniProt P61981, sequence (whole entry, looked up): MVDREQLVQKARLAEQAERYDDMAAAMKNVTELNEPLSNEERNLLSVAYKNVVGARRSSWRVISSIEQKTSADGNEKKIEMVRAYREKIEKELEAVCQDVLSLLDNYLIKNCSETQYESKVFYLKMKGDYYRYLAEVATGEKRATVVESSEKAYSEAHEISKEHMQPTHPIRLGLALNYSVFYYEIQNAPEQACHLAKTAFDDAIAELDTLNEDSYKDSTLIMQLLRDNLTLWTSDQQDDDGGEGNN
UniProt Q04206, sequence (whole entry, looked up): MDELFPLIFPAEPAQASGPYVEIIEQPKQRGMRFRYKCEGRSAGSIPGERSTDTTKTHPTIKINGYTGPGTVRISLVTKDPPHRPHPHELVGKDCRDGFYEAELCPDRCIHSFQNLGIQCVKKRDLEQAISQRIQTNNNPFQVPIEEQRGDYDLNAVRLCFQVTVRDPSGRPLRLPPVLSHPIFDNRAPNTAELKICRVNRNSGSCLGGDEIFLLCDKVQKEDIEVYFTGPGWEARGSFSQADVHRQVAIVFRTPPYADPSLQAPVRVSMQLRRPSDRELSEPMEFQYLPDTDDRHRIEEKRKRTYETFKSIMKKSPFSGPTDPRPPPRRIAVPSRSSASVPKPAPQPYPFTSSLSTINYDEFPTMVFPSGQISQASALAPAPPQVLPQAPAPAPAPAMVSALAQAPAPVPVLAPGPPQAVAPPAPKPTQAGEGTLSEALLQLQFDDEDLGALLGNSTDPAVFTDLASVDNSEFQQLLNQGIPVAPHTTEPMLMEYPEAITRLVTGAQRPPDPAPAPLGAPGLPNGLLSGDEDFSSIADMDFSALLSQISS

SMILES	tested on	test	system	setting	scale	endpoint	result
NC(=O)[C@H](CCCN=C(N)CCl)NC(=O)c1ccccc1	OCI-Ly1			0.1 µM, 120 h		viability	183%
OCc1nc2ccc(NCc3ccc(F)cc3)cc2[nH]1	sample A patient iPSC-derived NPCs	MTS		10 µM, 24 h	relative to: vehicle	viability	135 ± 11%
Cc1cn([C@H]2C[C@H](O)[C@@H](CO)O2)c(=O)nc1N	OCI-Ly1			0.5 µM, 120 h		viability	166%
OCc1nc2ccc(NCc3ccc(OC(F)(F)F)cc3)cc2[nH]1	sample A patient iPSC-derived NPCs	MTS		10 µM, 24 h	relative to: vehicle	viability	148 ± 6.23%
Nc1cccc2c1CN(C1CCC(=O)NC1=O)C2=O (centres unmarked)	bone marrow CD138+ myeloma cells	XTT		0.6 µM, mean of three patients		viability	104%
CCOC(=O)c1c(CSc2ccccc2)n(C)c2cc(Br)c(O)c(CN(C)C)c12	Nuclear receptor subfamily 2 group C member 2 ligand-binding domain	SPR imaging				Kd	0.0315 nM
Cc1cc(Nc2nn(-c3ccccc3)c(=O)c3ccccc23)n[nH]1	OCI-Ly1			0.1 µM, 120 h		viability	231%
Nc1cccc2c1C(=O)N(C1CCC(=O)NC1=O)C2=O (centres unmarked)	MM1.S	XTT		1.2 µM	relative to: untreated	viability	18%
O=Cc1ccc([N+](=O)[O-])c(OC(=O)C2CCC2)c1	YWHAG/RELA phospho-Ser45 p65 peptide	ternary complex formation, stabilizer, fluorescence anisotropy				EC50	> 1000 µM
CC(=O)c1nn(-c2ccc(Cl)cc2)/c(=N/N=C(\C)c2ccc(NC(=O)c3ccc(C)cc3)cc2)s1	MCF7			0.078 µM		viability	86.7%
Cc1cc(=O)oc2cc(NC(=O)CCCCCCC(=O)NO)ccc12	OCI-Ly1			1 µM, 120 h		viability	24%
COc1cc2ncnc(Nc3ccc(Oc4ccccc4)c(C)c3C)c2cc1OC	COLO 205 (BRAF V600E)	resazurin		0.3 µM, 72 h, with: trametinib	relative to: DMSO	viability	93.3%
O=C(CCCCCCC(=O)Nc1cccnc1)NO	OCI-Ly1			1 µM, 120 h		viability	45.2%
CCOC(=O)Nc1ccc(NCc2ccc(F)cc2)nc1N	sample A patient iPSC-derived NPCs	MTS		10 µM, 24 h	relative to: vehicle	viability	113 ± 3.17%
O=C(O)CCNc1cc(N2CCc3ccccc3CC2)nc(-c2ccccn2)n1	OCI-Ly1			0.5 µM, 120 h		viability	132%
C[C@@H](O)[C@@H](CO)NC(=O)[C@@H](CCCNC(=N)N)NC(=O)[C@@H]1CCCN1C(=O)[C@@H]1CSSC[C@H](NC(=O)[C@H](Cc2ccccc2)NC(=O)CN2CCN(CC(=O)O)CCN(CC(=O)O)CCN(CC(=O)O)CC2)C(=O)N[C@@H](Cc2ccc(O)cc2)C(=O)N[C@@H](Cc2ccccc2)C(=O)N[C@@H](CCC(N)=O)C(=O)N[C@@H](CC(N)=O)C(=O)N1 [gallium-68 labelled]			PBS	4 h, 37 °C		radiochemical purity	> 98%
CCOC(=O)Nc1cc(-c2ccc(C)c(NS(C)(=O)=O)c2)nn2c(C)nnc12	OCI-Ly1			0.5 µM, 120 h		viability	21.6%
Cc1ccc(CNC(=O)Cn2cc(CSc3nc4ccccc4[nH]3)nn2)cc1	Caco-2	MTT		3.91 ppm		viability	78.4%
Cc1nc2ccc(NC(=O)NCc3ccccc3)cc2[nH]1	sample A patient iPSC-derived NPCs	MTS		10 µM, 24 h	relative to: vehicle	viability	102 ± 4.48%
COc1cc2ncnc(Nc3ccc(Oc4ccccc4)cc3C)c2cc1OC	LoVo (KRAS G13D)	resazurin		0.1 µM, 72 h, with: trametinib 0 nM		viability	99.3%
Fc1ccc(CN(Cc2ccc(F)cc2)c2ccc3scnc3c2)cc1	sample A patient iPSC-derived NPCs	MTS		10 µM, 24 h	relative to: vehicle	viability	131 ± 15.4%
O=C(C1CCCCC1)N1CC(=O)N2CCc3ccccc3C2C1 (centres unmarked)	Nuclear receptor subfamily 2 group C member 2 ligand-binding domain	SPR imaging				Kd	2.44 nM
O=C(c1ccc(F)cc1)c1ccc2[nH]cnc2c1	sample A patient iPSC-derived NPCs	MTS		10 µM, 24 h	relative to: vehicle	viability	95.1 ± 1.53%
O=Cc1ccc(-n2ccnc2Br)nc1	YWHAG/RELA phospho-Ser45 p65 peptide	ternary complex formation, stabilizer, fluorescence anisotropy				EC50	> 1000 µM
Cc1nc2cc(NCc3ccc(F)cc3)ccc2s1	sample A patient iPSC-derived NPCs	MTS		10 µM, 24 h	relative to: vehicle	viability	98 ± 0.6%
Cc1cccc(-c2[nH]c(CNc3ccccc3F)nc2-c2ccc3ncnn3c2)n1	bone marrow CD138+ myeloma cells	XTT		1.2 µM, mean of three patients		viability	16%

Repeated from above:
SMILES	tested on	test	system	setting	scale	endpoint	result
CCOC(=O)c1c(CSc2ccccc2)n(C)c2cc(Br)c(O)c(CN(C)C)c12	Nuclear receptor subfamily 2 group C member 2 ligand-binding domain	SPR imaging				Kd	0.0315 nM
Cc1cc(Nc2nn(-c3ccccc3)c(=O)c3ccccc23)n[nH]1	OCI-Ly1			0.1 µM, 120 h		viability	231%
